Experimental data pooled from the literature.
Numbered parts are unrelated; each lists some results of a single study.

Sample 1 — method: protein binding microarray; form: double-stranded DNA, one strand shown; sample: in vitro; concentration: not given; baseline: not given; direction: higher = stronger binding
Target: Histone acetyltransferase KAT6A, winged helix 1, GST fusion (KAT6A, Homo sapiens, UniProt Q92794, residues 1-85)
Setting: 8-mer, flanks averaged, mean of 2 arrays, mostly near background
Target sequence (chain): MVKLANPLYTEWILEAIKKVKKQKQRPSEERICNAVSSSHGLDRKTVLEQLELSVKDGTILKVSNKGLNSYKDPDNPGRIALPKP
The E-score of `AACCTTGC` is reported as -0.0195.
The E-score of `AATCAAGC` is reported as -0.0249.
The E-score of `GGGTTAGA` is reported as 0.0424.
With `GGGATTTA` the E-score was 0.185.
With `GGGGTAAC` the E-score was -0.143.
With `AACACCGT` the E-score was 0.32.
For `CCTCGCAA`, the E-score was -0.0865.
For `AGTCGTGC`, the E-score was -0.0407.
`ATATCTGC` has an E-score of -0.0832.
The E-score of `AAATTACG` is reported as -0.0735.
The E-score of `CTTCTCGA` is reported as -0.27.
`GGAATAAC` gave an E-score of -0.0104.

Sample 2 — method: protein-binding microarray; form: double-stranded DNA, one strand shown; sample: in vitro; concentration: 250 nM; setting: 60-bp whole probe; with: salmon DNA 0.4 mg/ml; baseline: random background probes; direction: higher = stronger binding; constant ends, left off below: GCCTAGCAC … GTCTTGATTCGCTTGACGCTGCTG
Target: Interferon regulatory factor 7, full length, phosphomimetic (IRF7, Homo sapiens, UniProt Q92985, residues 1-503, S101K/S471D/S472D/S475D/S476D/S477D/S483D/S484D/S487D)
UniProt Q92985, sequence (whole entry, unmodified, looked up): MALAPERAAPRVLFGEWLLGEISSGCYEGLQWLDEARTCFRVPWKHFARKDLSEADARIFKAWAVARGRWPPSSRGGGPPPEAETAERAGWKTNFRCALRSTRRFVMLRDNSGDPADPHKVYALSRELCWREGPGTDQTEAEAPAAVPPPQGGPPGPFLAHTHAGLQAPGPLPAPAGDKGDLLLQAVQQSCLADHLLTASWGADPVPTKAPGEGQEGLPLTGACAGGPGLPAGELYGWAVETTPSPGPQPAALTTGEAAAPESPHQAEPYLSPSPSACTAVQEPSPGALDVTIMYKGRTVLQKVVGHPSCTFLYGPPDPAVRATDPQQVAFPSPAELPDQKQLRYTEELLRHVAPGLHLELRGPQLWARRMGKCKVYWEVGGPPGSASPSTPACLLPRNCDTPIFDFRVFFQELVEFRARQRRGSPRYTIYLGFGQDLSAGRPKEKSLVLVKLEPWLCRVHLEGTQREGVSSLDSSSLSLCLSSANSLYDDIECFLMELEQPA
With `GACAAACTGAGTTTCGAGACGTGCTAG` the log fluorescence was 4.22 z-score.
The log fluorescence of `TTAGATCTCAGACTGGATCAGTGCTAG` is reported as -0.211 z-score.
`TTAGATCTCAGCATCGATTAGTGCTAG` has a log fluorescence of 0.0264 z-score.
With `TCCATTTTCTAAATGCCCTAGTGCTAG` the log fluorescence was 1.85 z-score.
`TCATGTGTATATATAATACTGTGCTAG` gave a log fluorescence of 0.338 z-score.
`TTAGAACTTGGGTATCGATTAGTGCTA` has a log fluorescence of 0.463 z-score.
With `GACGGACTTGGTCTCGGGACGTGCTAG` the log fluorescence was -0.176 z-score.
`GGCGGTTTCGGGTTTCGGGACGTGCTA` gave a log fluorescence of 11.9 z-score.
For `GATGGTATCGGTCTCGGGACGTGCTAG`, the log fluorescence was 0.817 z-score.
The log fluorescence of `TTAGAACTGAGTTTCGTTTAGTGCTAG` is reported as 8.29 z-score.
`TCAAATTTACTTTGGTTACTGTGCTAG` has a log fluorescence of 0.151 z-score.

Sample 3 — method: RNA Bind-n-Seq; form: RNA; sample: in vitro; concentration: 1 µM; setting: whole 134-nt RNA, ends assumed; with: 150 mM KCl; baseline: input library; direction: higher = stronger binding
Target: Ras GTPase-activating protein-binding protein 1, C-terminal RGG region (G3BP1, Homo sapiens, UniProt Q13283)
UniProt Q13283, sequence (whole entry, looked up): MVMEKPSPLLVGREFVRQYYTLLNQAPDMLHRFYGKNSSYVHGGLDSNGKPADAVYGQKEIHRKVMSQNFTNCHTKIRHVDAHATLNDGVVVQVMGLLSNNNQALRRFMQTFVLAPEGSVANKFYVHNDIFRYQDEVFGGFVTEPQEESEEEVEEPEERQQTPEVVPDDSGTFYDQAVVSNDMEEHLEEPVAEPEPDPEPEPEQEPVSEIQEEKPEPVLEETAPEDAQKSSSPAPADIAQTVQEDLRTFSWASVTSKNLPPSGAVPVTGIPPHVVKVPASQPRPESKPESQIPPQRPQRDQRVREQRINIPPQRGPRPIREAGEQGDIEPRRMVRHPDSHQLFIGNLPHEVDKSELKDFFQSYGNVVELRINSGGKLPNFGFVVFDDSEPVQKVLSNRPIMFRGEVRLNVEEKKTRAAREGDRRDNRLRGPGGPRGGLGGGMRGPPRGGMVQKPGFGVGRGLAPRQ
For `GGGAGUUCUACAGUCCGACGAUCUUCCUCAAGUCCUGUGCUACACAUCGUAUGUACCGAAUCGGAGGAGGAGGGAAAGUAUUAUGUUACGCCGUUCGGAUCUGCACUUCCAGCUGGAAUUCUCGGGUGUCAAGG`, the log2 enrichment was -1.3.
`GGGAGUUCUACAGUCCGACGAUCUCCUGUGCUACACAUCGUAUGUACCGAAUCGGGUUUUUGGGAAAAAAAGGGAAAAAGGGAAAGUAUUAUGUUACGCCGUUCGGAUCUGCAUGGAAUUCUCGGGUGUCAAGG` has a log2 enrichment of -0.896.
The log2 enrichment of `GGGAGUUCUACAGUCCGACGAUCCACAGACAACACGCACCCACACAGACACAGAGGGAAGGGGUCGGGAUGGGGACAGGGUGCACAGCAGGGCGGGGUAGGACCCCAGCCCCUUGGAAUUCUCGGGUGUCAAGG` is reported as -0.355.
`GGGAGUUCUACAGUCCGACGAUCAGGCUAUGGAGGCUAUGAUGAUUACAAUGGCUAUAAUGAUGGCUAUGGAUUUGGGUCAGAUAGAUUUGGAAGAGGUAAGGUAAGAAUUGAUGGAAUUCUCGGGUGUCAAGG` gave a log2 enrichment of -0.675.
`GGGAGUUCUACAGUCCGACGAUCUCCUGUGCUACACAUCGUAUGUACCGAAUCAAACCCCCAAAUUUUUUUAAACCCCCAAAAAAGUAUUAUGUUACGCCGUUCGGAUCUGCAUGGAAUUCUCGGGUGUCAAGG` gave a log2 enrichment of -1.
`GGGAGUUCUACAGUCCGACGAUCUGGGAGUUGGAUUUUGUUUAUUUUUUUAGCUCAUUUCCAGGGGUGGGAAUUUUUUUUUAAUAUGUGUCAUGAAUAAAGUUGUUUUUGAAAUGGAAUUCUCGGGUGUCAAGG` gave a log2 enrichment of 3.46.
With `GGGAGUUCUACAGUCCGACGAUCUGGGAGGUGGAUUUUGUUUAUUUUUUUAGCUCAUUUCCAGGGGUGGGAAUUUUUUUUUAAUAUGUGUCUUGAAUAAAGUUGUUUUUGAAAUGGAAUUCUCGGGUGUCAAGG` the log2 enrichment was 3.97.

Single results of other studies
With `PhoQ, residues 284 288 289 292 302 303 SNGLAW` the fold induction was 9.09 (PhoP, residues 12 14 15 18 19 QYCSL (Escherichia coli, UniProt P23836); Sort-seq, item: YFP reporter; E. coli; PhoQ-PhoP variant library, with: 10 µM Mg2+; baseline: high Mg2+ state, higher = stronger signaling).

Some of these lines once more (sample 2):
`TCAAATTTACTTTGGTTACTGTGCTAG` has a log fluorescence of 0.151 z-score.
`TTAGATCTCAGCATCGATTAGTGCTAG` has a log fluorescence of 0.0264 z-score.
The log fluorescence of `TTAGATCTCAGACTGGATCAGTGCTAG` is reported as -0.211 z-score.
